Published values gathered from unrelated publications.
Every numbered part comes from another study and shows a few of its results, in no order. Substitutions count along the parent as printed.

Set 1 — target: CCND2, cyclin fold, Cln2 fusion (human); method: yeast growth competition, sequencing; matrix: yeast; notes: weak parent motif; baseline: not given; direction: higher = stronger binding
Starting sequence: CDC6 docking peptide (human); TLKGRRLVFDNQL
Substitution | normalised enrichment score
TLKGRRLVFDNIL [Q12I] | 0.224
TLKGVRLVFDNQL [R5V] | 0.362
TLWGRRLVFDNQL [K3W] | 0.0879
TLKGRRLVFANQL [D10A] | -0.00411
TLKGRRLCFDNQL [V8C] | 0.652
TLKGRQLVFDNQL [R6Q] | 0.419
SLKGRRLVFDNQL [T1S] | 0.47
TLKGRRLVFDNEL [Q12E] | -0.141
TLQGRRLVFDNQL [K3Q] | 0.432
TLKGRRLVFWNQL [D10W] | 0.313
TLKGRRLVFKNQL [D10K] | 0.0305
TLKGRRLNFDNQL [V8N] | 0.288
TLKWRRLVFDNQL [G4W] | 0.074
TFKGRRLVFDNQL [L2F] | -0.0208
TLKGRRLVFINQL [D10I] | 0.422
TMKGRRLVFDNQL [L2M] | 0.337
TLKGRRLIFDNQL [V8I] | 0.101
TPKGRRLVFDNQL [L2P] | 0.403
TLKGRRLVRDNQL [F9R] | 0.183

Set 2 — method: DHFR PCA, deep sequencing; matrix: yeast; added: (+)-ABA 4.8 µM; baseline: wild-type fitted maximum; direction: higher = stronger binding
Target: ABI1, truncated, D143A, DHFR fusion (Arabidopsis thaliana)
Notes: methotrexate growth selection, single substitutions
Starting sequence: PYL1, truncated, DHFR fusion (Arabidopsis thaliana); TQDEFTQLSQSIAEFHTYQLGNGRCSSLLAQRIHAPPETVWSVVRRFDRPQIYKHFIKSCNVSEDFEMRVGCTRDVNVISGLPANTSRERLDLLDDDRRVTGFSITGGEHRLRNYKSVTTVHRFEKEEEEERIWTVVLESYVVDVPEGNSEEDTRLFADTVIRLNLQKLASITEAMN; partner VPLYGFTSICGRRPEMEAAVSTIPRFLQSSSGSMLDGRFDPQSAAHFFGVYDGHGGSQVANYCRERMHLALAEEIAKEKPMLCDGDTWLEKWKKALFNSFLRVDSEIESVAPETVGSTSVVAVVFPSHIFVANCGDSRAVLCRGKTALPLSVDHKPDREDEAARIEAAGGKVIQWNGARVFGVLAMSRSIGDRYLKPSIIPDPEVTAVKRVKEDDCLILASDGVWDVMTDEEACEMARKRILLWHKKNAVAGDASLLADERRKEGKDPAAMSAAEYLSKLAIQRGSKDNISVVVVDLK
Substitution | relative binding score [%]
F56M | 41.4
V78A | 12.6
S27M | -0.529
N85M | 69.2
L166D | -16.7
F5W | 72.3
V43D | -2.92
V118Y | 12
D65W | 22.7
E125K | 78.6
N165E | -2.35
N61Q | 82.1
S63E | 71.8
L29W | 1.6
K126P | 92.8
D75M | 79.9

Set 3 — method: protein binding microarray; form: double-stranded DNA, one strand shown; matrix: in vitro; concentration: not given; baseline: not given; direction: higher = stronger binding
Target: Histone acetyltransferase KAT6A, both winged helices, GST fusion (KAT6A, Homo sapiens, UniProt Q92794, residues 1-181)
Notes: 8-mer, flanks averaged, mean of 2 arrays, mostly near background
Target sequence (chain): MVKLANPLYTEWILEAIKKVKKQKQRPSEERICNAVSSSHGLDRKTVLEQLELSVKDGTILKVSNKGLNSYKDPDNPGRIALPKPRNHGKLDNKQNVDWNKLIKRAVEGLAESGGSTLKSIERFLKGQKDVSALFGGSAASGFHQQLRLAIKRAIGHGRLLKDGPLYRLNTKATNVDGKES
Strand | E-score
AGTTTGGG | -0.181
ACTGCGGC | 0.111
CAAAGCGG | 0.266
AGACGACG | 0.0272
CTCACGCC | 0.18
CCGAGCGG | 0.279
AGGATGGA | -0.11
ACGTTCTG | 0.0364
AAGTGTCC | 0.0215
TAACTAAA | -0.0638
AGTTATAA | -0.0999
CATTGTGG | -0.153
TACGCCTA | -0.0275
ACCTCAAA | 0.011
CCCCGGCG | 0.254
CACTTGGG | -0.16
GAATCACC | -0.143

Set 4 — method: RNA Bind-n-Seq; form: RNA; matrix: in vitro; concentration: 365 nM; baseline: no-protein control; direction: higher = stronger binding
Target: RNA binding protein fox-1 homolog 2, RRM domain, GST-SBP tag (RBFOX2, Homo sapiens, UniProt O43251-10, residues 100-194)
Notes: natural RNA segment, single round, ends assumed
Residues (chain): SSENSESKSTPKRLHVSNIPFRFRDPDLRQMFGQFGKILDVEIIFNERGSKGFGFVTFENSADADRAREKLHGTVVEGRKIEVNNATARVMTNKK
Strand | RBNS enrichment (R)
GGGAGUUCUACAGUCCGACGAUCUAUUAUACUUUUCCUUUUUUAUAUAAUGUCUAACAAAAAAUACAGCUGCAACAUUUUGAUUCCUGUUAAUUUUGUUCUUUAAUUAAAUGACUACUUAUUGCAGGAAAUUAUGGAAUUCUCGGGUGCCAA | 1.22
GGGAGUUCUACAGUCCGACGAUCCCACACUUUCAAAGAGAAACCCCUCCAGAACUCCCACCCUGACAGCCCAACACCACCUUCCUCCUGGCUUCCAGGGGGCAGCCCAGUGGAAUGGAAAGAAUGUGGGAUUUUGGAAUUCUCGGGUGCCAA | 0.415
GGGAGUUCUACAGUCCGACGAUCCUUAACCAGCUCCUGAUCUCAAGAACACUAAAAGGCUAGCCGUUGUCUGUCUAGAGUGAAUACUUCACAGAUCUCAUUUAGGGAGAGCCUGGUCUAUGGACUAAGCUGAAUGGAAUUCUCGGGUGCCAA | 0.32
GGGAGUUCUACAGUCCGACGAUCCCUCAGCCUGUGGGUGGCACGAGCAAGGACUGACAUCCGCACAGGGAGGAUUGUCUGUUUGGCUGACACAGCAGCAGCCCUUCCCACCCAGCCACCUUCCUCACAGGGACUGGAAUUCUCGGGUGCCAA | 0.747
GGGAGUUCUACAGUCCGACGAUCAGGGCCAGUAACGGGUCGUAAUGACUUAUUGUGGAUAACAAAGAUAUCUUUUCUUUAGAGAACUGAAAAGAGAGCAGAGAAUAUAACAUGAAAUGAUAGAUUUGACCUCCUGGAAUUCUCGGGUGCCAA | 0.477
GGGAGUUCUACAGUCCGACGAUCACAUCACUCCAAGGCUCAGCUGGGCGCUGCUCAUCCCCAACUCUCAUAGUGACAUCACCUGUGGAUAUUUAAUGAGUGUGGGAUGCGGGGUCUGCGGUAGAGAUGGUUUCUGGAAUUCUCGGGUGCCAA | 0.341
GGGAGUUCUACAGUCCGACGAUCUUGUAUUUGUUGUGUUUAAGAACCAUUAAUGUAUUAUGUAAAAUUAAAUUUUAAAUGGAAUAUUUUAAACUGAUACAGUGGUGUAUGUGUGUGUAUAUGUAAUUUUCUUAUGGAAUUCUCGGGUGCCAA | 1.99
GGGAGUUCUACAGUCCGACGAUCUGCUUAUAAAGCUUAAUUCUGAUAUUAUCCUCUUACUACCUACAGUAUGUUUUGCAAAAAUCAGUCCACUUAGCAAACUAAUCUUUGUAAAGCAGUCAGUUUCAGAAGAUUGGAAUUCUCGGGUGCCAA | 0.424
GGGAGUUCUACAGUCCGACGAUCAUUUUGUGUUCUUUAGUUCUCCUUAAAAGAACUUUUGAAUUAUAAAAAUAAAAUCUUUACCUGUCGAAUUGUUGCUGCAGAUGAUUGUUGUGGAAAAUCUGGAUCAUUGAUGGAAUUCUCGGGUGCCAA | 1.02
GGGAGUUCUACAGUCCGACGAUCACAUGCUUAUAAAAGACUUUUAAUGAAAUGUUGCCUUUUUAAAAUAAUUAUACUUGCACAUGAAAAUAAAAUAUAAAGUCAAUAAUAGUCCUUGUAGCCCAAUGGGAAUUUGGAAUUCUCGGGUGCCAA | 0.933
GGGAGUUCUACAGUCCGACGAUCUAUAGCUGUUGUGUUUAAAAAUUGAAAAAAGUGGAAAACAUCUUUGUACAUUUAAGUCUGUAUUAUAAUAAGCAAAAAGAUUGUGUGUAUGUAUGUUUAAUAUAACAUGAUGGAAUUCUCGGGUGCCAA | 0.762
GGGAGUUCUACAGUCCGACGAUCCCCUCUGAUGGCCACUCAGAGAAUACCAUAAUAAACAUGGCUGAGGACCCAGGAGAGUUCACGGGAGGCUUCAUCAUAUGAAAGGACAAUGUUCUGGGUUGUGCAUGAAAUGGAAUUCUCGGGUGCCAA | 1.49

Set 5 — method: protein-binding microarray; form: double-stranded DNA, one strand shown; matrix: in vitro; concentration: 2200 nM top; notes: 60-bp whole probe; added: salmon DNA 0.4 mg/ml; baseline: random background probes; direction: higher = stronger binding; constant ends, left off below: GCCTAGCAC … GTCTTGATTCGCTTGACGCTGCTG
Target: Interferon regulatory factor 7, full length, phosphomimetic (IRF7, Homo sapiens, UniProt Q92985, residues 1-503, S471D/S472D/S475D/S476D/S477D/S483D/S484D/S487D)
Sequence of UniProt Q92985 (whole entry, unmodified, looked up): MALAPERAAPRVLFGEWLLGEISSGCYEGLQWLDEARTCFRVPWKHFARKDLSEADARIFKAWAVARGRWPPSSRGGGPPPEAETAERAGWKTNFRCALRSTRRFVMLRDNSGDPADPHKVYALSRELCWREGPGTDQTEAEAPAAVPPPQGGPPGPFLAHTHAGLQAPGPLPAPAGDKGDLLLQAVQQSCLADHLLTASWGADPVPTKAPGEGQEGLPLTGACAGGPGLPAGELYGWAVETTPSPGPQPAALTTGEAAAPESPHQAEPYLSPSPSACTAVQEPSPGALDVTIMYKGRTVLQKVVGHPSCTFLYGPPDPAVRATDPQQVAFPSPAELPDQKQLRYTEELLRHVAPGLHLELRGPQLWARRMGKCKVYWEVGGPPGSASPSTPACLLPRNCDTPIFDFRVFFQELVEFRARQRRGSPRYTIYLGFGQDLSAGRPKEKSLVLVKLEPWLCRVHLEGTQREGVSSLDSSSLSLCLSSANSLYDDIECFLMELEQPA
Strand | fitted relative affinity [z-score]
TTAGATTTCAGTCTGGATTAGTGCTAG | 0.419
GATGGTTCCGGTTTCGGGACGTGCTAG | 5.99
TTAGGTTTCGACTATCGGTCAGTGCTA | 3.12
GACGGACTGCGTCTCGGGACGTGCTAG | -0.506
GACGGTTTCGACTATCCGGACGTGCTA | 3.8
CACGGTATCGGACTGGGGACGTGCTAG | -0.18
TTAGAACTGGGGTTTCGGTTAGTGCTA | 3.16
TCAGCTTCCATTTTCTGACTGTGCTAG | 2.95
TTAGGTTTCGACATTGGGTTAGTGCTA | 3.22
GACGGTTTGGGACTGGGGACGTGCTAG | 0.371
GAAGATCTCAGACTGGAGACGTGCTAG | -0.408
TTAGGTTCCCATTTCCTTTAGTGCTAG | 2.9
TCACTTATCCTTCCCCTACTGTGCTAG | 3.1
TCAGAATTACCTCTGGAACTGTGCTAG | -0.34
TTAGAACTGAGCCTGGATTAGTGCTAG | -0.469
TTAGGTTTCCTTCTGCTTTAGTGCTAG | 2.44
GACGGTCTGGGTATCGGGACGTGCTAG | -0.545
GCGATTTGAGGAGCTCGCTCGTGCTAG | 1.53
CTTTCTATGTCTGTTTTTGCGTGCTAG | 2.74
TTAGCTTTCGGACTGGGTTAGTGCTAG | 3.68

Set 6 — target: DDIT3, bZIP domain (human); method: DHFR protein complementation; matrix: yeast; baseline: wild-type JUN-FOS pair; direction: higher = stronger binding
Notes: single substitutions, most at no-binding floor
Starting sequence: JUN, bZIP domain (human); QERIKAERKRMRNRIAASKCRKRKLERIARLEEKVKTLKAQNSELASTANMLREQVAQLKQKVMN; partner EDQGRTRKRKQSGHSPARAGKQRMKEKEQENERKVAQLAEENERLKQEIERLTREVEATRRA
Substitution | binding fitness
A29N | -0.0434 natural log
A29M | -0.278 natural log
E32H | -0.37 natural log
N42A | -0.75 natural log
T48K | 0.117 natural log
L31D | -0.941 natural log
A49V | 0.0168 natural log
A49Y | -0.0569 natural log
R30N | 0.0537 natural log
A40G | -0.289 natural log
Q58T | 0.0121 natural log
L52A | -1.19 natural log
R53P | -1.2 natural log
I28K | -0.188 natural log
E33H | -0.0445 natural log
S43V | 0.0275 natural log
N42P | -1.23 natural log
S47E | 0.179 natural log
L52K | -1.13 natural log
N42M | -1.14 natural log
K34G | -0.843 natural log
A46T | 0.124 natural log
R53Y | -0.774 natural log
T48F | -0.078 natural log
N42R | -0.244 natural log

Repeated from above (set 1):
Substitution | normalised enrichment score
TLKGRRLVFWNQL [D10W] | 0.313
TLKGRRLVFKNQL [D10K] | 0.0305
TLKGRRLNFDNQL [V8N] | 0.288
TLKWRRLVFDNQL [G4W] | 0.074
TFKGRRLVFDNQL [L2F] | -0.0208
TLKGRRLVFINQL [D10I] | 0.422
TMKGRRLVFDNQL [L2M] | 0.337
